Measured values from different studies.
Numbered parts are unrelated; each lists some results of a single study.

Sample 1
Target: Prothrombin, mature alpha-thrombin (F2, Homo sapiens, UniProt P00734)
Technique: aptamer microarray, sandwich
Molecule type: DNA with 2'F-ANA
Matrix: in vitro
Concentration: 200 nM
Notes: whole 15-mer aptamer, many near background
With: Cy3 exosite-II aptamer, 400 nM
Direction: higher = stronger binding
Strand: GGTTGGTGTGGTTGG
| Modification | mean fluorescence intensity [a.u.] |
| --- | --- |
| 2'F-ANA at 1 3 9 10 11 | 121 |
| 2'F-ANA at 1 7 10 14 15 | 47.1 |
| 2'F-ANA at 1 2 4 5 7 10 13 15 | 48 |
| 2'F-ANA at 2 3 4 8 9 10 11 12 13 14 15 | 150 |
| 2'F-ANA at 2 4 6 7 13 14 15 | 86.3 |
| 2'F-ANA at 1 2 4 5 6 8 9 12 13 14 15 | 54 |

Sample 2
Target: Interferon regulatory factor 5, full length, phosphomimetic (IRF5, Homo sapiens, UniProt Q13568-2, residues 1-514, S451D/S453D/S456D/S462D)
Technique: protein-binding microarray
Molecule type: double-stranded DNA, one strand shown
Matrix: in vitro
Concentration: 940 nM top
Notes: 60-bp whole probe
With: salmon DNA 0.4 mg/ml
Relative to: random background probes
Direction: higher = stronger binding
All sequences stand within: GCCTAGCAC … GTCTTGATTCGCTTGACGCTGCTG
| Strand | fitted relative affinity [z-score] |
| --- | --- |
| TTAAGACTGGGGTATCGGTTAGTGCTA | 3.22 |
| TCATAATTCTGATTGGAACTGTGCTAG | -0.404 |
| GACGGACTGGACACTGGGGAGGTGCTA | -0.205 |
| CACGGTCTCGGTATCGGGACGTGCTAG | 4.65 |
| TCTCTTTTGGCTTTCCTTTAGTGCTAG | 3.57 |

Sample 3
Target: TAR DNA-binding protein 43, full length, His tag (TARDBP, Homo sapiens, UniProt Q13148, residues 1-414)
Technique: RNA Bind-n-Seq
Molecule type: RNA
Matrix: in vitro
Concentration: 20 nM
Notes: 6-mer, flanks averaged, single round
With: 150 mM LiCl
Relative to: input library
Direction: higher = stronger binding
| Strand | 6-mer enrichment (R) |
| --- | --- |
| CAGAGG | 0.983 |
| GGAUGC | 1.05 |
| AGAGAC | 0.881 |
| GAAAUU | 0.89 |

Further values, each from its own experiment
| Molecule | target | assay | system | setting | how to read | measurement | result |
| --- | --- | --- | --- | --- | --- | --- | --- |
| PhoQ, residues 284 288 289 292 302 303 NSMLDC | PhoP, residues 12 14 15 18 19 NFCKL (Escherichia coli, UniProt P23836) | Sort-seq, refers to: YFP reporter | E. coli | PhoQ-PhoP variant library, with: 10 µM Mg2+ | relative to: high Mg2+ state, higher = stronger signaling | fold induction | 15.2 |

Repeated from above (sample 1):
| Modification | mean fluorescence intensity [a.u.] |
| --- | --- |
| 2'F-ANA at 2 4 6 7 13 14 15 | 86.3 |
